Measured values collected from several papers.
Parts stem from different laboratories: compare values within a part only. Changes are numbered by the printed parent chain.
Chain of UniProt Q07912 (whole entry, looked up): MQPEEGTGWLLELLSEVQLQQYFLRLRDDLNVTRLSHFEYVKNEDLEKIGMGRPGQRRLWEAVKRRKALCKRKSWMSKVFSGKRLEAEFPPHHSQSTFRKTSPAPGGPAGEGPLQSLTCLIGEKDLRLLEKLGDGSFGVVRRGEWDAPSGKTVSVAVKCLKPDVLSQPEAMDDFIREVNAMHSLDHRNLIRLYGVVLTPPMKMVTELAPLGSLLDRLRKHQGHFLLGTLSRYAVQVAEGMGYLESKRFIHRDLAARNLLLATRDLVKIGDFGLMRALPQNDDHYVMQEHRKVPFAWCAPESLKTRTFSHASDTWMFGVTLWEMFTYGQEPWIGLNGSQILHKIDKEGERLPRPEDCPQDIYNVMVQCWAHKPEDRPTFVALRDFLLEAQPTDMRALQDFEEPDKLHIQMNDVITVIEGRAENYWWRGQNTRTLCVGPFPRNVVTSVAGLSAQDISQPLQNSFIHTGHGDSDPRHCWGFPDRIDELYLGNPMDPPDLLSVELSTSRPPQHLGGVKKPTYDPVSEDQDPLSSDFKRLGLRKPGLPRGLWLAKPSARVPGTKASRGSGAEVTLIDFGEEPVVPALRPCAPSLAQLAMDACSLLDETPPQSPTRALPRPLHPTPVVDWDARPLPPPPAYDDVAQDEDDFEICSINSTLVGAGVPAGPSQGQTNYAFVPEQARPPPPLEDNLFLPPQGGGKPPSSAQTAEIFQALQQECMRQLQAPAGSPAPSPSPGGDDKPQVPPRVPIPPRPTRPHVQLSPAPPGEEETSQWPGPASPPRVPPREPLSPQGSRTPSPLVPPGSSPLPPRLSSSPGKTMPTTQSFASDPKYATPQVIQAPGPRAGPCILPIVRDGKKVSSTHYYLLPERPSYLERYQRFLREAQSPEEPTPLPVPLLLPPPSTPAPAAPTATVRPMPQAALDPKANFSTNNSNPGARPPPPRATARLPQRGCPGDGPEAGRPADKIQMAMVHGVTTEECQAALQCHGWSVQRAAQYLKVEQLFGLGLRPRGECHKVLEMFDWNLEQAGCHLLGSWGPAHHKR

Sample 1
Target: inorganic phosphate, free oxyanion
Method: microfluidic competitive inhibition
Medium: in vitro, cell-free expressed
Tested at: not given
Setting: derived from inhibition constants, unchanged parent 615000 nM
Direction: lower = stronger binding
Starting sequence: PafA, mature enzyme, eGFP fusion (Elizabethkingia meningoseptica, UniProt Q9KJX5); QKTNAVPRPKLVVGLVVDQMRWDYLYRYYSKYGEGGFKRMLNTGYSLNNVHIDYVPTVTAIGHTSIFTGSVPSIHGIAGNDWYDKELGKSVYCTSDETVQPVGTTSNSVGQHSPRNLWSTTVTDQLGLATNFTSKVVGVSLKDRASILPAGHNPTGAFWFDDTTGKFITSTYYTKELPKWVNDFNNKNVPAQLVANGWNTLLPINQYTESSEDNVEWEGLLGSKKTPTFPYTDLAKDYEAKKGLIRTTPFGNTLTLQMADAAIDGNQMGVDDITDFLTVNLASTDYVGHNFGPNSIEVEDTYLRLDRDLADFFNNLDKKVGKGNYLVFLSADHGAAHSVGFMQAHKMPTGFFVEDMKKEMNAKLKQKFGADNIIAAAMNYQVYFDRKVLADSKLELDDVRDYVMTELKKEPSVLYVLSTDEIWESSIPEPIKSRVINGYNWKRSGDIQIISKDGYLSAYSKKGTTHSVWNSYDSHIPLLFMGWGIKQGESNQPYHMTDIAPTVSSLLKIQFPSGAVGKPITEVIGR
Substitution	phosphate dissociation constant [µM]
S211G	487
K357G	606
F167G	618
L244G	398
G165V	353
I296V	656
F352G	588
F132V	510

Sample 2
Target: UDP-N-acetylglucosamine--peptide N-acetylglucosaminyltransferase 110 kDa subunit (OGT, Homo sapiens, UniProt O15294)
Chain of UniProt O15294 (whole entry, looked up): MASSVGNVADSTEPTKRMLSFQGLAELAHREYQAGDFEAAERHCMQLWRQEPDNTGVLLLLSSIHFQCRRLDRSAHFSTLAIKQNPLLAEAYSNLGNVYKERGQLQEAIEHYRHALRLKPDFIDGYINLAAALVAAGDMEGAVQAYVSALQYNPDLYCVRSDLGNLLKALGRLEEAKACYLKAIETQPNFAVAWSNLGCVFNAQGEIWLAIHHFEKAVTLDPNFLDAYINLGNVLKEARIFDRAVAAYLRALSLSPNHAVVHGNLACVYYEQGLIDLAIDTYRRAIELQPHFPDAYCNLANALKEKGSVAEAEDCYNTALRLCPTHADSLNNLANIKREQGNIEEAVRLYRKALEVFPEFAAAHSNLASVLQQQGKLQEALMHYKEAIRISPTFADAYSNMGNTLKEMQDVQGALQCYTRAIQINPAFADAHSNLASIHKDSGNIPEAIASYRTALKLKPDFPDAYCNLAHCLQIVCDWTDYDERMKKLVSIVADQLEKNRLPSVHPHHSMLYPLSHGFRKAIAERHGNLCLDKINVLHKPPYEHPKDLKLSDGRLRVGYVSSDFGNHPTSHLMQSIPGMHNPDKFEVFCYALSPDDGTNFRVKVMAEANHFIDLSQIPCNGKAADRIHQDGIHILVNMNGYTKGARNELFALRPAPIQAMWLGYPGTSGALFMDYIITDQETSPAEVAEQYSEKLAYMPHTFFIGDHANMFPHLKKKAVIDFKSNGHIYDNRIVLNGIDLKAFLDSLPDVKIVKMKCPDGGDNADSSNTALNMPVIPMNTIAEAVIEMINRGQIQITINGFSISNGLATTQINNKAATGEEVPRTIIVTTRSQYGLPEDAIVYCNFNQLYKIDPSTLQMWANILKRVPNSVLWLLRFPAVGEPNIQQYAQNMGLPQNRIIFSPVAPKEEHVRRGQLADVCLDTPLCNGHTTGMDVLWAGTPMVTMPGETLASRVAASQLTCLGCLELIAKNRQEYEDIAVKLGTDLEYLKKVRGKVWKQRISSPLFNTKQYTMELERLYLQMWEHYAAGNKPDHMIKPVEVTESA
Read-out: phage display binding
Method: phage display panning NGS
Molecule type: peptide
Setting: panning round 3
Baseline: OGT-panned over input library
Sequence	fold enrichment
DFLYMPKYQMVFDFT	3.8
VDYRPAYPIDWAPWK	2.55
NIMPAYQIMYPANFR	2.33
QQQYRDYNPKYIIHY	2.01
ESIYKPRYQISIAYA	4.18
YYLPAYQIAPKYVQD	2.21
SYMPVYQIDYTPAV	4.07
DMYEYRYKPHYVIQI	2.95

Sample 3
Target: CCNE1, cyclin fold, Cln2 fusion (human)
Method: yeast growth competition, sequencing
Medium: yeast
Setting: strong parent motif
Baseline: not given
Direction: higher = stronger binding
Starting sequence: viral docking peptide; TSVRRALFTGGSD
Substitution	normalised enrichment score
TSVKRALFTGGSD [R4K]	5.45
TSVRRALFKGGSD [T9K]	4.54
TSVRRALKTGGSD [F8K]	-0.147
TSVRRVLFTGGSD [A6V]	6.97
TSVRRYLFTGGSD [A6Y]	0.525
TSQRRALFTGGSD [V3Q]	-0.144
TSVRRQLFTGGSD [A6Q]	7.39
TSVRRALYTGGSD [F8Y]	0.579

Other studies, line by line
SMILES	target	read-out	tested at	added	baseline	quantity	result
COC[C@H]1OC(=O)c2coc3c2[C@@]1(C)C1=C(C3=O)[C@@H]2CCC(=O)[C@@]2(C)C[C@H]1OC(C)=O	Activated CDC42 kinase 1 (TNK2, Homo sapiens, UniProt Q07912)	kinase activity	0.5 µM	ATP 10 µM	untreated	remaining activity	102%

Some of these lines once more (sample 3):
Substitution	normalised enrichment score
TSVRRYLFTGGSD [A6Y]	0.525
TSQRRALFTGGSD [V3Q]	-0.144
TSVRRQLFTGGSD [A6Q]	7.39
